# Published values gathered from unrelated publications.
# Every numbered part comes from another study and shows a few of its results, in no order. Values joined by “and” are separate records of one study, mostly repeats; a detail may differ.
# Chain of UniProt Q15418 (whole entry, looked up): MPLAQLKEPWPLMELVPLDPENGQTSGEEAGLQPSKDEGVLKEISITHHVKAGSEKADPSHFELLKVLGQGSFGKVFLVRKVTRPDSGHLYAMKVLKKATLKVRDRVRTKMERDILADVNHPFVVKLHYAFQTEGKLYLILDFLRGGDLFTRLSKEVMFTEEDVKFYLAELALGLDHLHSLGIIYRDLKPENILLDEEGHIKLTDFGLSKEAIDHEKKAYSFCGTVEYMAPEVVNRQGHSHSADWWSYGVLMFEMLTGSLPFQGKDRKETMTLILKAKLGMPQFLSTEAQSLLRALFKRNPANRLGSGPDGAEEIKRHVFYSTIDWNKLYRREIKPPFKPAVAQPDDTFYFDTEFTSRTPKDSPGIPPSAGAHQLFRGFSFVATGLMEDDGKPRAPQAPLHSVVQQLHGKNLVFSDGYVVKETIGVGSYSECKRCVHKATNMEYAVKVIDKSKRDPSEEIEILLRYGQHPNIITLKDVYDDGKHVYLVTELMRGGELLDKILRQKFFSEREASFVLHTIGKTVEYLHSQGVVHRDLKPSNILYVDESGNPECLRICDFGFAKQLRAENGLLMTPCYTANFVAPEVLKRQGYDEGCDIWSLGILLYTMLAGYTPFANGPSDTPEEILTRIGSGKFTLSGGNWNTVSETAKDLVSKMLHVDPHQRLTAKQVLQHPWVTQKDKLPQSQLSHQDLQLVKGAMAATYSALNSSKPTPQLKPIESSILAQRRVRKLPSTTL
# Chain of UniProt P48736 (whole entry, looked up): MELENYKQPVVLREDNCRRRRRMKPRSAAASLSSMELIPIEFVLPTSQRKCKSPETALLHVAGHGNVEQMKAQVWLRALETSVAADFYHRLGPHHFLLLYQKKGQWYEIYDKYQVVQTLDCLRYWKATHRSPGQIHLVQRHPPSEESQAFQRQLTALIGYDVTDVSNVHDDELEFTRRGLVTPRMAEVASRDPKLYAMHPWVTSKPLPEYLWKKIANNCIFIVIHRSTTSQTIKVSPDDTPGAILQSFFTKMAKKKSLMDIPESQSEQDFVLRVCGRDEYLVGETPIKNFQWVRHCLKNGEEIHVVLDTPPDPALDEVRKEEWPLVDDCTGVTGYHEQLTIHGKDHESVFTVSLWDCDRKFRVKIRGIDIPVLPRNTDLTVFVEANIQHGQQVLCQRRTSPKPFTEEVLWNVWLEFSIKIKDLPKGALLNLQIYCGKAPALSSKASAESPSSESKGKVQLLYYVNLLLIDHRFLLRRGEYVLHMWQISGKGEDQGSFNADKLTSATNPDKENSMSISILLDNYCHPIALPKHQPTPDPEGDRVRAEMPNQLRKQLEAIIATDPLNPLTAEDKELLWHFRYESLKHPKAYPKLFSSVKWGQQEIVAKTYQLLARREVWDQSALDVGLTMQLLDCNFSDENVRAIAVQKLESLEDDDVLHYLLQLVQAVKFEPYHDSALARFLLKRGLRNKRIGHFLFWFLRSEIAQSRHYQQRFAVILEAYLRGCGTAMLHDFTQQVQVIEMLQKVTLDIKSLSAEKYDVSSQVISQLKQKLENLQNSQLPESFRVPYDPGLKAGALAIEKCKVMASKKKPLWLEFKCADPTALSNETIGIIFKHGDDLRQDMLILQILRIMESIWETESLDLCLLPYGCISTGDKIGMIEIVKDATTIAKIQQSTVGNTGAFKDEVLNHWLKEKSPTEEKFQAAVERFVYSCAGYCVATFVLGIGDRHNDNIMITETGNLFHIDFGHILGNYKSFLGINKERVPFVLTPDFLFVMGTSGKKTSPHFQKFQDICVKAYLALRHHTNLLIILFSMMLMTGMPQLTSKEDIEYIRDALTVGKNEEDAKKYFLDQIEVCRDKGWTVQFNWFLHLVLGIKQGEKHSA

# Set 1 — observed: cell-free assay; technique: competition with immobilised ligand; tested at: 1 µM
# SMILES: O=C(NC[C@@H]1[C@H]2CN(C(=O)OCc3cc(C(F)(F)F)cc(C(F)(F)F)c3)C[C@@H]12)c1ccc2[nH]nnc2c1
target,remaining binding [%]
"MARK2 (Homo sapiens, UniProt Q7KZI7)",89
"RIOK2 (Homo sapiens, UniProt Q9BVS4)",94
"PIM3 (Homo sapiens, UniProt Q86V86)",100
"MAP3K2 (Homo sapiens, UniProt Q9Y2U5)",80
"MAPK15 (Homo sapiens, UniProt Q8TD08)",100
"CASK (Homo sapiens, UniProt O14936)",70
"AKT3 (Homo sapiens, UniProt Q9Y243)",87
"Tyrosine-protein kinase ABL1, phosphorylated (ABL1, Homo sapiens, UniProt P00519, T315I)",93
"PHKG1 (Homo sapiens, UniProt Q16816)",92
"EPHB4 (Homo sapiens, UniProt P54760)",100
"PAK3 (Homo sapiens, UniProt O75914)",100
"PIK3CG (Homo sapiens, UniProt P48736)",76
"PIM2 (Homo sapiens, UniProt Q9P1W9)",100
"TSSK1B (Homo sapiens, UniProt Q9BXA7)",100
"NUAK2 (Homo sapiens, UniProt Q9H093)",88
"Tyrosine-protein kinase ABL1, phosphorylated (ABL1, Homo sapiens, UniProt P00519, F317L)",88
"EPHA6 (Homo sapiens, UniProt Q9UF33)",69
"MAPK13 (Homo sapiens, UniProt O15264)",100
"Ribosomal protein S6 kinase alpha-1, C-terminal kinase domain (RPS6KA1, Homo sapiens, UniProt Q15418)",83
"STK25 (Homo sapiens, UniProt O00506)",95
"Tyrosine-protein kinase JAK1, JH1 (JAK1, Homo sapiens, UniProt P23458)",89

# Set 2 — species: human; medium: microsomes or S9; tested at: 2 µM; time: 0.5 h
SMILES,remaining compound [%]
CC(C)Oc1nnc(SCc2nc3c(=O)n(C)c(=O)n(C)c3[nH]2)s1,82.2
Cc1ccc(Cl)cc1N1CCN(Cc2nc3c([nH]2)c(=O)[nH]c(=O)n3C)CC1,53.9
Cc1nn(CCC(=O)NC(C)(C)CN2CCCC(C)C2)c(C)c1C (centres unmarked),51.9
CCc1ccc(-c2nnc(N3CCN(C(C)c4nccs4)CC3)n2CCCOC)cc1 (centres unmarked),24.4
COC(=O)c1ccc(C)c(NC(=O)CN(C)Cc2ccc(Cl)s2)c1,1.04
Cc1ccc(N(Cc2ccc(F)cc2)N(C)CC(=O)NC2CCCCC2)cc1,0.0234
CC(C)c1cc(C(N)=O)c(NC(=O)/C(=C/c2ccccc2)c2ccccc2)s1,55.6
COC(=O)c1ccccc1NC(=O)CSc1nnnn1-c1ccc(OCc2ccccc2)cc1,24.3
Cn1c(=O)c2c(nc(N3CCCCC3)n2CC/N=C2\CCCN2)n(C)c1=O,97.7
Cn1c(CN2CCc3ccccc3C2)cc(=O)c(O)c1CN1CCOC(c2ccccc2)C1 (centres unmarked),79.2
Cc1csc(N2N=C(c3ccccc3)CC2c2ccccc2C)n1 (centres unmarked),51
CCCN(c1nc2nc(C)c(Cl)c(C)n2n1)S(=O)(=O)c1ccccc1,40.7
COc1cc(NC(=O)CCC(=O)OC(C)C)nc(OC)n1,29.7

# Set 3 — observed: enzyme activity; mode: inhibitor; tested at: 77 µM; baseline: untreated
# Target: DNA polymerase theta, ATPase domain (POLQ, Homo sapiens, UniProt O75417)
# Chain of UniProt O75417 (whole entry, unmodified, looked up): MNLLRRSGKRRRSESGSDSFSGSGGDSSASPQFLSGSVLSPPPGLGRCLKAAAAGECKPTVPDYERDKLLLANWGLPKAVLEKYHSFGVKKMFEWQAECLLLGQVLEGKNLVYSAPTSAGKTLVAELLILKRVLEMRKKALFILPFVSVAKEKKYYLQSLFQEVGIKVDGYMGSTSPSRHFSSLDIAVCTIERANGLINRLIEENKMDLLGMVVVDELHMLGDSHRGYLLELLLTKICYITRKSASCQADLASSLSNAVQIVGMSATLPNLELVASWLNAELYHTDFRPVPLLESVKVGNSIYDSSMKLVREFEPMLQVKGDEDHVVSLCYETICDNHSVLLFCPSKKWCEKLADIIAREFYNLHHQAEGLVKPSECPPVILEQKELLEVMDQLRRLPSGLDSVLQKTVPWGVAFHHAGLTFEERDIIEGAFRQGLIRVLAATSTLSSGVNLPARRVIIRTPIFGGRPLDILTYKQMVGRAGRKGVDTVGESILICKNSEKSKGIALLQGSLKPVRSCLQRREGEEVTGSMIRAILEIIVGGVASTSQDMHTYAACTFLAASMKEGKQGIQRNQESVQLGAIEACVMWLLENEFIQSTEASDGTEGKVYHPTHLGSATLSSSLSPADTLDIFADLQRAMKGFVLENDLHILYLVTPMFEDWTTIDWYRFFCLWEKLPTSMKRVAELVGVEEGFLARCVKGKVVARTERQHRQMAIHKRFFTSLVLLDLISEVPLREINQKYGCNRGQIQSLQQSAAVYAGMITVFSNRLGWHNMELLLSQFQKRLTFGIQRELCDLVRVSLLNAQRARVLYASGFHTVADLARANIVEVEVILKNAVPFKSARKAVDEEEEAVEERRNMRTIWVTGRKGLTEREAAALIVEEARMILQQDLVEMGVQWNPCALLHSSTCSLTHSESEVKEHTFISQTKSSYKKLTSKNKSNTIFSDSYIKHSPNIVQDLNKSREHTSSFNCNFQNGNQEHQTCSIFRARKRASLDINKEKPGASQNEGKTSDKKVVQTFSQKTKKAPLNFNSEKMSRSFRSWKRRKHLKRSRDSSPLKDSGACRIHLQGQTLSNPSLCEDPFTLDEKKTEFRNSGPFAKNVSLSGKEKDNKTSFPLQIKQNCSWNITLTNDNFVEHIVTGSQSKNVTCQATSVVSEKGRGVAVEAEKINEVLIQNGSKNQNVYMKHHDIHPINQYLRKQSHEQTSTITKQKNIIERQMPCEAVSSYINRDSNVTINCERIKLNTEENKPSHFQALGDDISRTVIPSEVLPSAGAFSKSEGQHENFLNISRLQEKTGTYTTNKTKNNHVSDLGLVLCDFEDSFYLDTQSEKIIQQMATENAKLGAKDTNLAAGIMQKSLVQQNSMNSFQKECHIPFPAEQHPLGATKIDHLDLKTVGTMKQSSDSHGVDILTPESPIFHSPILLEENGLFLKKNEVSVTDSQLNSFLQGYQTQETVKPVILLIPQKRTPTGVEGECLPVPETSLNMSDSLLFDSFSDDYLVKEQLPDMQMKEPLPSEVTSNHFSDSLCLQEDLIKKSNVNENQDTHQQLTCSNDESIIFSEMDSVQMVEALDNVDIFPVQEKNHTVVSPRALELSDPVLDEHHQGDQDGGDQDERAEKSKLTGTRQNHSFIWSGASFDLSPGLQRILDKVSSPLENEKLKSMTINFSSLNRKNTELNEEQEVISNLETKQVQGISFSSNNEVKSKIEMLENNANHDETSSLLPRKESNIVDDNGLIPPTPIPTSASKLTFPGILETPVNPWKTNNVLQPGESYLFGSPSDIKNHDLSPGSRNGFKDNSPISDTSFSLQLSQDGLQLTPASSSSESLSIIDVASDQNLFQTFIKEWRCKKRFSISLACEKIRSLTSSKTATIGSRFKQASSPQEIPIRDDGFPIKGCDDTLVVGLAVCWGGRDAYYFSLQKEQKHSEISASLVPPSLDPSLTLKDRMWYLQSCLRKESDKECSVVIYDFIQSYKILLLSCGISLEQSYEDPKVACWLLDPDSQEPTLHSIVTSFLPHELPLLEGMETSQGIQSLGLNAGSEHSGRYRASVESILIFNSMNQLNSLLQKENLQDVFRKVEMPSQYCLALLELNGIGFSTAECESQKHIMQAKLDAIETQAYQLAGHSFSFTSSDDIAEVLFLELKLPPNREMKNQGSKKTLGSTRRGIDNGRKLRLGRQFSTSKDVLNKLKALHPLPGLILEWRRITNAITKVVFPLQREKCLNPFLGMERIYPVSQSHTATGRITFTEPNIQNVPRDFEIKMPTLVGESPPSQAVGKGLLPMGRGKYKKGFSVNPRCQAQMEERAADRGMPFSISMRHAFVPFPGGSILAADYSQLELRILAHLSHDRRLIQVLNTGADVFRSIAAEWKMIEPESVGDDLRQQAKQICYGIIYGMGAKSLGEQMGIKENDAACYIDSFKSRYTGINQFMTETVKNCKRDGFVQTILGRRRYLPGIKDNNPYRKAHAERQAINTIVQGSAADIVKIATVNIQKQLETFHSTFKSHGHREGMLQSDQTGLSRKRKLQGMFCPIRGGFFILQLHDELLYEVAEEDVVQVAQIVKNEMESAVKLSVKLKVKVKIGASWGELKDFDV
SMILES,remaining activity
c1ccc2c3c([nH]c2c1)[C@H]1[C@H]2CC[C@H]([C@@H]4CCCN[C@@H]42)N1CC3,103%
Cn1cc(/C=C2\C(=O)Nc3cccnc32)c2ccccc21,114% and 108% and 117%
Cc1cc(NC(=O)Nc2ccc3c(ccn3C)c2)sn1,116%
CCC(CC)CC1(C(=O)Nc2ccccc2SC(=O)C(C)C)CCCCC1,99.3%
C[C@H]1O[C@@H](n2cc(F)c(=O)[nH]c2=O)[C@H](O)[C@@H]1O,99.9% and 104%
CC(=O)Nc1ncc([N+](=O)[O-])s1,99.3%
CC1(C)Cc2c(-c3ccccc3)c(-c3ccc(Cl)cc3)c(CC(=O)O)n2C1,70.2%
CCCn1c(=O)c2[nH]c(-c3ccc(S(=O)(=O)O)cc3)nc2n(CCC)c1=O,92.3%
CN(C)C(=O)[C@H](O)[C@H](Cc1ccccc1)NC(=O)c1cc2cc(Cl)ccc2[nH]1,102% and 105%
Cc1nnc(C(=O)NC(C)(C)c2nc(C(=O)NCc3ccc(F)cc3)c(O)c(=O)n2C)o1,97.8%
COC(=O)[C@@H](N)Cc1ccc(O)c(O)c1,100%
Cc1cc(Cn2cnc3c2C[C@@H](C(=O)O)N(C(=O)C(c2ccccc2)c2ccccc2)C3)ccc1N(C)C,89.6%
OC[C@@H](O)[C@@H](O)[C@H](O)[C@@H](O)CO,92.4%
CC(C)C[C@H](NC(=O)[C@H](Cc1ccccc1)NC(=O)c1cnccn1)B(O)O,97.2%
C#C[C@]1(O)CC[C@H]2[C@@H]3CCC4=CCCC[C@@H]4[C@H]3CC[C@@]21C,106%
O=c1cc(-c2ccc(O)cc2)oc2c([C@@H]3O[C@H](CO)[C@@H](O)[C@H](O)[C@H]3O)c(O)cc(O)c12,94.4%

# Set 4 — observed: enzyme activity; mode: inhibitor; tested at: 0.5 µM; baseline: control
# Target: Receptor-interacting serine/threonine-protein kinase 2 (RIPK2, Homo sapiens, UniProt O43353)
# Chain of UniProt O43353 (whole entry, looked up): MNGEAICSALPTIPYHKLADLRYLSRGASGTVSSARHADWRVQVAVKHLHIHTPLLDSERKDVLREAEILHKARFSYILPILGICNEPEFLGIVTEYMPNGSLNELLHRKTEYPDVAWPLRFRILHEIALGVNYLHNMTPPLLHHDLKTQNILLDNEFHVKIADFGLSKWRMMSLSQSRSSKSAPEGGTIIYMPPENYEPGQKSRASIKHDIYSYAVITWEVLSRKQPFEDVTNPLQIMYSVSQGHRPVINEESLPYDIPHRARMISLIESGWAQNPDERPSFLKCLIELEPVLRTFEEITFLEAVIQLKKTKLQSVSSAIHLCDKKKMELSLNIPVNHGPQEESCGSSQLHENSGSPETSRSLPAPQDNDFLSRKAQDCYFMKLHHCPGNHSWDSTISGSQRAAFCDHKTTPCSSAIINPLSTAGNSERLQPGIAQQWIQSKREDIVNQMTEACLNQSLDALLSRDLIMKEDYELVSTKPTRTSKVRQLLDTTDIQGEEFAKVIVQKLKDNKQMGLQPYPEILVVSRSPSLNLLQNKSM
Compound,remaining activity [%]
CCN(CC)CCCCN1c2ccccc2Oc2ccc(Cl)cc21,89.7
CC(C)(C)c1nc2c3cc[nH]c(=O)c3c3cc(F)ccc3c2[nH]1,34.6
O=Nc1c(-c2c(O)[nH]c3ccccc23)[nH]c2ccccc12,72.3
NC(=O)c1ccc(-c2nc(-c3ccc4c(c3)OCCO4)c(-c3ccccn3)[nH]2)cc1,48.3
C[C@@H](N)[C@H]1CC[C@H](C(=O)Nc2ccncc2)CC1,100
Clc1ccc(Nc2nnc(Cc3ccncc3)c3ccccc23)cc1,111
O=C1NC(=O)/C(=C/c2ccc3c(c2)OC(F)(F)O3)S1,88.2
NC(=O)c1cccc(-c2cc(Nc3ccc(OC(F)(F)F)cc3)ncn2)c1,89.3
COc1cc2c(N3CCN(C(=O)Nc4ccc(OC(C)C)cc4)CC3)ncnc2cc1OCCCN1CCCCC1,110
Nc1nc(Nc2ccc(S(N)(=O)=O)cc2)nn1C(=S)Nc1c(F)cccc1F,19.7
CCCCc1c(-c2ccc(O)cc2)[nH]c2nccnc12,58.6
CC(C)n1cnc2c(Nc3cccc(Cl)c3)nc(NCCO)nc21,84.3
CNc1cc2c(Nc3cccc(Br)c3)ncnc2cn1,69.2
CC(C)N(CCC(=O)c1ccc2ccccc2c1)Cc1ccccc1,78.3
COc1cc2c(Nc3ccc(Br)cc3F)ncnc2cc1OCC1CCN(C)CC1,23.4
N#C/C(=C(/N)SC1C=CC=CC1)c1cccc(C(O)c2ccncc2)c1 (centres unmarked),83.7
FC(F)(F)c1ccc(/C=C/c2nc(COc3ccc(CCCCn4ccnn4)cc3)co2)cc1,109
c1cc(-c2cnn3cc(-c4ccc(OCCN5CCCCC5)cc4)cnc23)ccn1,15.9
O=c1c(-c2ccc(F)cc2)c(-c2ccncc2)[nH]n1-c1ccc(Cl)cc1,50.2
O=C(O)/C=C/c1cc(Br)c(Br)c(Br)c1Br,88.4
O=C(c1ccccc1)c1ccc(N2CCOCC2)cc1O,95

# Some of these lines once more (set 4):
Compound,remaining activity [%]
CNc1cc2c(Nc3cccc(Br)c3)ncnc2cn1,69.2
Nc1nc(Nc2ccc(S(N)(=O)=O)cc2)nn1C(=S)Nc1c(F)cccc1F,19.7
FC(F)(F)c1ccc(/C=C/c2nc(COc3ccc(CCCCn4ccnn4)cc3)co2)cc1,109
CC(C)N(CCC(=O)c1ccc2ccccc2c1)Cc1ccccc1,78.3
CCN(CC)CCCCN1c2ccccc2Oc2ccc(Cl)cc21,89.7
Clc1ccc(Nc2nnc(Cc3ccncc3)c3ccccc23)cc1,111
O=Nc1c(-c2c(O)[nH]c3ccccc23)[nH]c2ccccc12,72.3
NC(=O)c1cccc(-c2cc(Nc3ccc(OC(F)(F)F)cc3)ncn2)c1,89.3
NC(=O)c1ccc(-c2nc(-c3ccc4c(c3)OCCO4)c(-c3ccccn3)[nH]2)cc1,48.3
CC(C)n1cnc2c(Nc3cccc(Cl)c3)nc(NCCO)nc21,84.3
CCCCc1c(-c2ccc(O)cc2)[nH]c2nccnc12,58.6
